Measured values pooled from the literature.
Each numbered part is a random draw from the data of one study; scales do not carry over between parts.
UniProt P23458, sequence (whole entry, looked up): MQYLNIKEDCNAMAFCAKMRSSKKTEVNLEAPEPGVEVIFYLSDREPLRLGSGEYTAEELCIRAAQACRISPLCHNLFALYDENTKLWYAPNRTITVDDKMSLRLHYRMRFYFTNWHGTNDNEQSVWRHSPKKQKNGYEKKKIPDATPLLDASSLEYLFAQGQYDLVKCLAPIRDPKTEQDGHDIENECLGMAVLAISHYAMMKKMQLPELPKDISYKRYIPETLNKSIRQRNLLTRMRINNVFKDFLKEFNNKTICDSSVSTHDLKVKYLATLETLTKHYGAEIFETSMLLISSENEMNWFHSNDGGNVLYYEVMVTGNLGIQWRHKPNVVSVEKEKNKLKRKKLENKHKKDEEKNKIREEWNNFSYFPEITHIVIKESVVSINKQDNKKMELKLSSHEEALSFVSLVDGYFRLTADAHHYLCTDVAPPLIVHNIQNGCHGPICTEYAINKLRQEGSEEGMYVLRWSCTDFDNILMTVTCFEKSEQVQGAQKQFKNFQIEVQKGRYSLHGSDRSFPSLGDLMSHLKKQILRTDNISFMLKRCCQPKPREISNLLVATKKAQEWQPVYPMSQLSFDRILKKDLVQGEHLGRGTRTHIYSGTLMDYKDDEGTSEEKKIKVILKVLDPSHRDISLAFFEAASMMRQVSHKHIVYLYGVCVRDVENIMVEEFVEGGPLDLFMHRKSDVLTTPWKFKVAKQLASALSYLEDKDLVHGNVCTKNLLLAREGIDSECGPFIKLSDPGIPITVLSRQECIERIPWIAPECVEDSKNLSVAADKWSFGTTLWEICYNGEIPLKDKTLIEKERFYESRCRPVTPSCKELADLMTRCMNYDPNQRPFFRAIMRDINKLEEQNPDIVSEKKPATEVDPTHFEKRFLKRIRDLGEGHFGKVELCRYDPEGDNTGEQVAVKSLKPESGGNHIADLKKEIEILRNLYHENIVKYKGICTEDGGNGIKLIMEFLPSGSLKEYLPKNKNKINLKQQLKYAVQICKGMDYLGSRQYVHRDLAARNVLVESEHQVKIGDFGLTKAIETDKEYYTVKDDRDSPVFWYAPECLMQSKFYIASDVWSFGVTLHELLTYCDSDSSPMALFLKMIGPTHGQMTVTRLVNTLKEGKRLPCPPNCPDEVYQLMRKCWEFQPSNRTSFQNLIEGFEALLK
UniProt O15197, sequence (whole entry, looked up): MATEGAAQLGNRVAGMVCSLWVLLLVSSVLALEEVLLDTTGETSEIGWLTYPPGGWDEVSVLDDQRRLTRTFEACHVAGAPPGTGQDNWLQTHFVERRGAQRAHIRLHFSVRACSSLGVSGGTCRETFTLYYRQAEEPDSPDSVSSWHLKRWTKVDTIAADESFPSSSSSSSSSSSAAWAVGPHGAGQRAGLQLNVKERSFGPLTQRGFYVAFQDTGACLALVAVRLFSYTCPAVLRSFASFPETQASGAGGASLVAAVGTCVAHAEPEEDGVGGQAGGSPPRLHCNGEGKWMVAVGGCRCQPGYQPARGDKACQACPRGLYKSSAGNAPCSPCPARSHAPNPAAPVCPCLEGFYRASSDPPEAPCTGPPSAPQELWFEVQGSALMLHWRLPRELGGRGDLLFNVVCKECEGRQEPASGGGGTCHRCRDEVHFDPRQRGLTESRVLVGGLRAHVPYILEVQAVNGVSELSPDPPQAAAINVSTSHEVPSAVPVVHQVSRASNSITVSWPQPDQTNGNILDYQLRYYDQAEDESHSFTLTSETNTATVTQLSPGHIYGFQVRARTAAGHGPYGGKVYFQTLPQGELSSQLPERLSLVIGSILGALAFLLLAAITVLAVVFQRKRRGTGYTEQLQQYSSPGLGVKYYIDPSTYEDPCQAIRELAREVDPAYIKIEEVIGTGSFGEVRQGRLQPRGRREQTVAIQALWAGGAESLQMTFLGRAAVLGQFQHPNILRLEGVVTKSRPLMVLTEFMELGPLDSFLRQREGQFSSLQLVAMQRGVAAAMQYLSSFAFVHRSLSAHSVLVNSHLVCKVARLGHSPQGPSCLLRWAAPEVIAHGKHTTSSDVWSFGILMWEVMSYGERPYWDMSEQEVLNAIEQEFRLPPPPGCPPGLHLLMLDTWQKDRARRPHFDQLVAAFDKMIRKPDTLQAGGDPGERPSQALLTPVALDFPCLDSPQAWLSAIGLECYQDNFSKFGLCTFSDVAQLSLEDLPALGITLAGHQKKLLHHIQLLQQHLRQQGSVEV
UniProt Q04759, sequence (whole entry, looked up): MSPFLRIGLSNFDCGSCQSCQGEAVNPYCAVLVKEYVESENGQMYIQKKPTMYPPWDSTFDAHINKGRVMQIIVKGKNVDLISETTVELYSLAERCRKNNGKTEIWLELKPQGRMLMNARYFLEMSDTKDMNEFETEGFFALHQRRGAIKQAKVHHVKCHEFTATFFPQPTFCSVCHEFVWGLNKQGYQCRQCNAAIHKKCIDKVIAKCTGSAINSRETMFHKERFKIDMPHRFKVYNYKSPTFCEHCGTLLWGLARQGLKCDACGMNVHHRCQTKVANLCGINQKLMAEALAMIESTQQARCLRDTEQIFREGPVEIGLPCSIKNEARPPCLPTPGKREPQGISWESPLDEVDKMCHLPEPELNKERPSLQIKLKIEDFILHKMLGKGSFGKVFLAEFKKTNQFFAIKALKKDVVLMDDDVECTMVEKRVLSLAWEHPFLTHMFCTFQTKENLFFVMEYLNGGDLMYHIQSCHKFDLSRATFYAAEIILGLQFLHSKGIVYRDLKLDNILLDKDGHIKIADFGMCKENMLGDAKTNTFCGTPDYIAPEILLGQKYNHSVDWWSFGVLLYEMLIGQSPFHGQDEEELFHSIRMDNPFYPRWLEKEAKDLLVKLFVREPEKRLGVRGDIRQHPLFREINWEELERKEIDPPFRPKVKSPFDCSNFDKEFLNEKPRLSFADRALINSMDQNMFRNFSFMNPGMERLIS
UniProt Q9H0K1, sequence (whole entry, looked up): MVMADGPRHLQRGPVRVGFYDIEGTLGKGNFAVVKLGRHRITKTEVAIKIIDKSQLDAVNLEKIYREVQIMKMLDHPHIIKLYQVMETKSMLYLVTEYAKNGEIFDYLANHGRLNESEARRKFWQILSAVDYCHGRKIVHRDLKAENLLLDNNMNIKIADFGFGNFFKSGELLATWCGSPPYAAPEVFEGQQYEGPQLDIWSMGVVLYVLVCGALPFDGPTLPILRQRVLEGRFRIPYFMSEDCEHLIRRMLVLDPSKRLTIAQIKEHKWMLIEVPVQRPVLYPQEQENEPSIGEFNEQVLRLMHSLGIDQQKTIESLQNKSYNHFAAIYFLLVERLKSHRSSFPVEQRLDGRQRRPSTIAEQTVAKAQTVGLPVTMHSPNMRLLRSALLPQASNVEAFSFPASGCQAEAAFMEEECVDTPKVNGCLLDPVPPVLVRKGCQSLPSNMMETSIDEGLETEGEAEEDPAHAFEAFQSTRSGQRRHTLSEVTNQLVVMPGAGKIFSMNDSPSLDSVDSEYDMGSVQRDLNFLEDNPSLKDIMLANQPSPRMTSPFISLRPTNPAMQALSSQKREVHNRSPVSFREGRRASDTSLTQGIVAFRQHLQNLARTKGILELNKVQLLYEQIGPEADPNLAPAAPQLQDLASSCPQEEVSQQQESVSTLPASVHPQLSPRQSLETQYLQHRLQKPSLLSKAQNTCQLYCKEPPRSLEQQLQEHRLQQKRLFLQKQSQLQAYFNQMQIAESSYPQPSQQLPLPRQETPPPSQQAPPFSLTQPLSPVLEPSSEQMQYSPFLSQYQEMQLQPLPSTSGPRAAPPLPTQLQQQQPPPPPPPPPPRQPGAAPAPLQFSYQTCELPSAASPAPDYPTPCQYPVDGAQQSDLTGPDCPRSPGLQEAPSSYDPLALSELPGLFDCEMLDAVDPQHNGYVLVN
UniProt Q92918, sequence (whole entry, looked up): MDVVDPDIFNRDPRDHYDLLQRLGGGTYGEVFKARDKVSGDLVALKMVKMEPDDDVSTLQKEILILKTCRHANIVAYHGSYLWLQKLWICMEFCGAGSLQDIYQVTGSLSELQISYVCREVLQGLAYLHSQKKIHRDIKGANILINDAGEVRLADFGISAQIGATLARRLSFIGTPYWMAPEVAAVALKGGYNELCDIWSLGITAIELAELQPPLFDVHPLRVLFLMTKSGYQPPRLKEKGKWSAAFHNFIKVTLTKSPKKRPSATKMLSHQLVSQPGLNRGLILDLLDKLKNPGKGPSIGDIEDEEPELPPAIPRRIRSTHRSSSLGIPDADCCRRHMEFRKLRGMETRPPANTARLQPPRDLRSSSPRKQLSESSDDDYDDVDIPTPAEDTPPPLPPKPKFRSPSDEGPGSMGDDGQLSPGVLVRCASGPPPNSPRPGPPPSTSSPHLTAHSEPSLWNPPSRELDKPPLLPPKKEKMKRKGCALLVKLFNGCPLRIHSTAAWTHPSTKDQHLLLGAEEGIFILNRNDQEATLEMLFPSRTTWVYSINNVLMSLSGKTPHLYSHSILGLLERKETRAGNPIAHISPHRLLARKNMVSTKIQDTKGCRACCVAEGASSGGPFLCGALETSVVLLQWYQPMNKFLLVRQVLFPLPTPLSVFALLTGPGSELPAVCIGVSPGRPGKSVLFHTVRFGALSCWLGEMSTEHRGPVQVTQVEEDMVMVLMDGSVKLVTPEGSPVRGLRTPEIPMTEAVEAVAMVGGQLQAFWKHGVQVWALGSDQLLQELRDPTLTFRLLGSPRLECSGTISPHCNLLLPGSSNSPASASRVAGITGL
UniProt Q13882, sequence (whole entry, looked up): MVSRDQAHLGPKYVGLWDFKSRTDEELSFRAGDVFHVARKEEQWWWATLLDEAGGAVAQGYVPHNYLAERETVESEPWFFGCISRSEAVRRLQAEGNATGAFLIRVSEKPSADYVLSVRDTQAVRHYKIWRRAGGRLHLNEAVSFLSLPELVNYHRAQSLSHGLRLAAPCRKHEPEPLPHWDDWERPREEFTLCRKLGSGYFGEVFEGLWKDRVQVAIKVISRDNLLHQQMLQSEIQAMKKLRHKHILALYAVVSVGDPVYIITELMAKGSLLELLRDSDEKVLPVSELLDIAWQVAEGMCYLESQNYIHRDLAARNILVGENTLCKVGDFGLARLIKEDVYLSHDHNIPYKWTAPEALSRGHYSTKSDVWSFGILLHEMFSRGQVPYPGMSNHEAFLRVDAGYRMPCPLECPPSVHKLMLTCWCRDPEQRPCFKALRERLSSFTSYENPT

Study 1 — read-out: cell-free assay; method: competition with immobilised ligand; concentration: 1 µM
Compound: Nc1cnc(N2CCc3cc(S(=O)(=O)Nc4c(F)cc(Cl)cc4F)cc(N4CCCC4=O)c32)nc1
target | remaining binding [%]
LIM domain kinase 1 (LIMK1, Homo sapiens, UniProt P53667) | 100
DAPK2 (Homo sapiens, UniProt Q9UIK4) | 91
PIK3CB (Homo sapiens, UniProt P42338) | 87
MAP4K1 (Homo sapiens, UniProt Q92918) | 83
Ribosomal protein S6 kinase alpha-5, C-terminal kinase domain (RPS6KA5, Homo sapiens, UniProt O75582) | 100
PRPF4B (Homo sapiens, UniProt Q13523) | 76
SGK1 (Homo sapiens, UniProt O00141) | 100
PTK2 (Homo sapiens, UniProt Q05397) | 99
TEK (Homo sapiens, UniProt Q02763) | 78
EPHB6 (Homo sapiens, UniProt O15197) | 100
MATK (Homo sapiens, UniProt P42679) | 100
BRAF (Homo sapiens, UniProt P15056) | 98
RET (Homo sapiens, UniProt P07949, V804M) | 100
STK17B (Homo sapiens, UniProt O94768) | 100
PRKACB (Homo sapiens, UniProt P22694) | 100
DAPK1 (Homo sapiens, UniProt P53355) | 100
GSK3A (Homo sapiens, UniProt P49840) | 100
MAP3K5 (Homo sapiens, UniProt Q99683) | 83
Tyrosine-protein kinase ABL1, non-phosphorylated (ABL1, Homo sapiens, UniProt P00519, T315I) | 100
Tyrosine-protein kinase JAK1, JH2 (JAK1, Homo sapiens, UniProt P23458) | 93
PTK6 (Homo sapiens, UniProt Q13882) | 100

Study 2 — host: human; medium: microsomes or S9; concentration: 2 µM; time: 0.5 h
SMILES | remaining compound
c1ccc(C(c2ccccc2)([C@H]2CCCN2)n2cc(-c3ccccn3)nn2)cc1 | 18.9%
CC(C)(C)OC(=O)N1c2ccccc2[C@H]2OC(=O)C[C@H]21 | 70.1%
Cc1ccccc1Nc1nc(N)nc(-c2oc3ccccc3c2C)n1 | 84.9%
COc1cc(=O)n2c(c1C(=O)NCc1ccc(F)cc1Cl)CCCC2 | 4.51%
O=S(=O)(/C(=C(\F)Oc1ccccc1)c1ccccc1)c1ccccc1 | 12.4%
COc1cc(OC)c(CC2C(=O)N(c3ccccc3)c3ccccc32)c(OC)c1 (stereo not drawn) | < 1%

Study 3 — read-out: enzyme activity; mode: inhibitor; concentration: 0.5 µM; relative to: control
Compound: Cc1cncc2cccc(S(=O)(=O)N3CCCN(C(=O)CN)C[C@@H]3C)c12
target | remaining activity [%]
MUSK (Homo sapiens, UniProt O15146) | 88.7
MAP3K20 (Homo sapiens, UniProt Q9NYL2) | 108
CAMK1 (Homo sapiens, UniProt Q14012) | 102
EPHA6 (Homo sapiens, UniProt Q9UF33) | 92.2
PRKCQ (Homo sapiens, UniProt Q04759) | 105
PAK1 (Homo sapiens, UniProt Q13153) | 98.1
SRPK1 (Homo sapiens, UniProt Q96SB4) | 103
FLT1 (Homo sapiens, UniProt P17948) | 96.9
Cyclin-dependent kinase 2, with cyclin E (CDK2, Homo sapiens, UniProt P24941) | 92.3
IGF1R (Homo sapiens, UniProt P08069) | 110
CLK2 (Homo sapiens, UniProt P49760) | 102
SIK2 (Homo sapiens, UniProt Q9H0K1) | 89.4
CAMKK1 (Homo sapiens, UniProt Q8N5S9) | 115
TEC (Homo sapiens, UniProt P42680) | 117
RPS6KA3 (Homo sapiens, UniProt P51812) | 91.8
SGK2 (Homo sapiens, UniProt Q9HBY8) | 102
CLK1 (Homo sapiens, UniProt P49759) | 104
JAK1 (Homo sapiens, UniProt P23458) | 108
CSNK1E (Homo sapiens, UniProt P49674) | 100
TYRO3 (Homo sapiens, UniProt Q06418) | 98.9
PRKCZ (Homo sapiens, UniProt Q05513) | 91.2
CSNK1D (Homo sapiens, UniProt P48730) | 107
PAK6 (Homo sapiens, UniProt Q9NQU5) | 108

Single results of other studies
Structure (SMILES) | test system | conditions | quantity | value
CC(C)n1cnc(-c2ccc(F)cc2)c1-c1ncc(C(=O)Nc2ccc(N3CCN(C)CC3)cc2)[nH]1 | human, idiopathic pulmonary fibrosis | 30 mg once daily, trial, treatment-emergent | patients with muscular weakness | 0%
